# Published values collected from several papers.
# Parts stem from different laboratories: compare values within a part only.

# Study 1 — technique: protein-binding microarray; form: double-stranded DNA, one strand shown; sample: in vitro; tested at: not given; direction: higher = stronger binding
# Target: TATA-box-binding protein 1 (TBP1, Arabidopsis thaliana, UniProt P28147, residues 1-200, full length assumed)
# Notes: k-mer, scored over probes, only values ≥0.25
# Target sequence (chain): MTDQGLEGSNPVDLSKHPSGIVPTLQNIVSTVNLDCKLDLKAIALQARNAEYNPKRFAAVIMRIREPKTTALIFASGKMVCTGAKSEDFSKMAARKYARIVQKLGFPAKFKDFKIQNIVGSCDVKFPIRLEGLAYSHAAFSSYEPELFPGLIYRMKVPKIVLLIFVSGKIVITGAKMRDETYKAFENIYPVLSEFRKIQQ
Oligonucleotide,E-score
ATATAGC,0.391
GTAATTA,0.305
AAGTAAT,0.32
CAGTTTA,0.279
TGTATAA,0.363
AAAAATA,0.317
GATAAAA,0.348

# Study 2 — technique: protein-binding microarray; form: double-stranded DNA, one strand shown; sample: in vitro; tested at: 2540 nM top; notes: 60-bp whole probe; with: salmon DNA 0.4 mg/ml; relative to: random background probes; direction: higher = stronger binding; all sequences stand within: GCCTAGCAC … GTCTTGATTCGCTTGACGCTGCTG
# Target: Interferon regulatory factor 3, full length, phosphomimetic (IRF3, Homo sapiens, UniProt Q14653, residues 1-427, S386D/S396D/S398D/S402D/T404D/S405D)
# Target sequence (chain): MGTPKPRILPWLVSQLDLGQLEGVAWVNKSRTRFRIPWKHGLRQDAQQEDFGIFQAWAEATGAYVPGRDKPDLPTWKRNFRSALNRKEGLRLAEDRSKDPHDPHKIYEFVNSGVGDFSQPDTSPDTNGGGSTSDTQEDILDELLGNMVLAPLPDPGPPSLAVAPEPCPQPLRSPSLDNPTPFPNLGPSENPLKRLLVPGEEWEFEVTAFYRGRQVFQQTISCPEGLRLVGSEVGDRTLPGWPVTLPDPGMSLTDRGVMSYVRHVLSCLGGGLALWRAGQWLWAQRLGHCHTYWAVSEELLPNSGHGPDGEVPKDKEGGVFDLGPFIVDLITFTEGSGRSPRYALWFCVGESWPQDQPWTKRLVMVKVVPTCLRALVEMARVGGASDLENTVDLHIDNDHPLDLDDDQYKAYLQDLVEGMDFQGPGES
Oligonucleotide,fitted relative affinity [z-score]
GACGGTTTCGGTCTCGGCACGTGCTAG,8.04
GACGATTACAGTCTCGAGACGTGCTAG,0.482
TTAGCACTGGACACTGGGTTAGTGCTA,-1.06
TCAGTTTTAAATAGGGCACTGTGCTAG,1.09
GATGGACTGGGGACTGGGGACGTGCTA,-1.05

# Study 3 — technique: aptamer microarray, sandwich; form: DNA with 2'F-ANA; sample: in vitro; tested at: 200 nM; with: Cy3 exosite-II aptamer, 400 nM; direction: higher = stronger binding; oligonucleotide: GGTTGGTGTGGTTGG
# Target: Prothrombin, mature alpha-thrombin (F2, Homo sapiens, UniProt P00734)
# Notes: whole 15-mer aptamer, many near background
Modification,mean fluorescence intensity [a.u.]
2'F-ANA at 1 5 6 7 8 10 11 13 14,72.6
2'F-ANA at 1 2 4 5 6 7 8 9 10 11 13 15,51.1
2'F-ANA at 1 2 6 8 9 10 12,64.9
2'F-ANA at 2 3 4 5 6 8 9 10 11 12 13 14,59.3
2'F-ANA at 1 3 4 5 6 7 10 11 13 15,44.7

# Other studies, line by line
Molecule,target,assay,system,conditions,how to read,endpoint,value
"PhoQ, residues 284 288 289 292 302 303 TTCLQL","PhoP, residues 12 14 15 18 19 SEGLL (Escherichia coli, UniProt P23836)","Sort-seq, refers to: YFP reporter",E. coli,"PhoQ-PhoP variant library, with: 10 µM Mg2+","relative to: high Mg2+ state, higher = stronger signaling",fold induction,9.92

# Some of these lines once more (study 1):
Oligonucleotide,E-score
ATATAGC,0.391
GTAATTA,0.305
AAGTAAT,0.32
